{"data": "Results from different studies", "note": "A part holds a random share of what one study measured. Substitutions count along the parent as printed."}
{"data": "Sample 1", "target": "Histone acetyltransferase KAT6A, both winged helices, GST fusion (KAT6A, Homo sapiens, UniProt Q92794, residues 1-181)", "technique": "protein binding microarray", "form": "double-stranded DNA, one strand shown", "medium": "in vitro", "concentration": "not given", "setting": "8-mer, flanks averaged, mean of 2 arrays, mostly near background", "reference": "not given", "reading": "higher = stronger binding", "Residues (chain)": "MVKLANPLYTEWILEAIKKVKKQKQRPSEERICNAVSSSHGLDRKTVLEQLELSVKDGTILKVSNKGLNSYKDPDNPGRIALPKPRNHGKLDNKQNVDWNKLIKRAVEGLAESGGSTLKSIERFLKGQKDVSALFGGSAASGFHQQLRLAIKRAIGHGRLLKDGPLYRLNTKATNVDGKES"}
{"Strand": "GCTCTGGA", "E-score": -0.0153}
{"Strand": "AGCCTACG", "E-score": 0.179}
{"Strand": "CAATGCAG", "E-score": -0.00414}
{"Strand": "ACGATATG", "E-score": 0.0779}
{"Strand": "CCTTCTAG", "E-score": -0.0509}
{"Strand": "AAACATAG", "E-score": -0.0396}
{"data": "Sample 2", "target": "CCNA2, cyclin fold, Cln2 fusion (human)", "technique": "yeast growth competition, sequencing", "medium": "yeast", "setting": "strong parent motif", "reference": "not given", "reading": "higher = stronger binding", "starting sequence": "GMNC docking peptide (human); KNAKRNLSSEFAN"}
{"Variant": "F11R", "normalised enrichment score": 0.256}
{"Variant": "N2S", "normalised enrichment score": 5.86}
{"Variant": "A12E", "normalised enrichment score": 5.62}
{"Variant": "F11V", "normalised enrichment score": 0.16}
{"Variant": "K4A", "normalised enrichment score": 4.11}
{"Variant": "E10D", "normalised enrichment score": 3.56}
{"Variant": "N6L", "normalised enrichment score": 0.257}
{"Variant": "N6R", "normalised enrichment score": 4.33}
{"Variant": "N6V", "normalised enrichment score": 0.658}
{"Variant": "A12V", "normalised enrichment score": 4.37}
{"data": "Sample 3", "target": "Max dimerization protein 1, bHLH-zipper, MAX partner unstated (MXD1, Homo sapiens, UniProt Q05195, residues 56-136)", "technique": "protein-binding microarray", "form": "double-stranded DNA, one strand shown", "medium": "in vitro", "concentration": "not given", "setting": "k-mer, scored over probes, only values ≥0.25", "reading": "higher = stronger binding", "Construct (chain)": "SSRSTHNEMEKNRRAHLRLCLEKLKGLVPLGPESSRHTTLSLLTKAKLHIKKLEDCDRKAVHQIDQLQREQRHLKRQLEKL"}
{"Strand": "CCCGCACG", "E-score": 0.33}
{"Strand": "ACCGCCCC", "E-score": 0.27}
{"Strand": "ACATGGTG", "E-score": 0.32}
{"Strand": "ATGAGGAC", "E-score": 0.271}
{"Strand": "CCACGGCG", "E-score": 0.251}
{"Strand": "CTCCACGC", "E-score": 0.342}
{"Strand": "AACCACGT", "E-score": 0.453}
{"Strand": "CGAGACGC", "E-score": 0.255}
{"Strand": "CATGGCAA", "E-score": 0.321}
{"data": "Other studies, line by line"}
{"Substance": "PhoQ, residues 284 288 289 292 302 303 HSSMNL", "target": "PhoP, residues 12 14 15 18 19 IFFTR (Escherichia coli, UniProt P23836)", "test": "Sort-seq, refers to: YFP reporter", "test system": "E. coli", "conditions": "PhoQ-PhoP variant library, added: 10 µM Mg2+", "scale": "reference: high Mg2+ state, higher = stronger signaling", "quantity": "fold induction", "result": 10.5}
{"note": "Some of these lines once more (sample 3):"}
{"Strand": "CATGGCAA", "E-score": 0.321}
{"Strand": "CGAGACGC", "E-score": 0.255}
{"Strand": "CCCGCACG", "E-score": 0.33}
